Measured values pooled from the literature.
± gives the spread as reported.
SLC22A7: Solute carrier family 22 member 7 (SLC22A7, Homo sapiens, UniProt Q9Y694)
UniProt Q9Y694, sequence (whole entry, looked up): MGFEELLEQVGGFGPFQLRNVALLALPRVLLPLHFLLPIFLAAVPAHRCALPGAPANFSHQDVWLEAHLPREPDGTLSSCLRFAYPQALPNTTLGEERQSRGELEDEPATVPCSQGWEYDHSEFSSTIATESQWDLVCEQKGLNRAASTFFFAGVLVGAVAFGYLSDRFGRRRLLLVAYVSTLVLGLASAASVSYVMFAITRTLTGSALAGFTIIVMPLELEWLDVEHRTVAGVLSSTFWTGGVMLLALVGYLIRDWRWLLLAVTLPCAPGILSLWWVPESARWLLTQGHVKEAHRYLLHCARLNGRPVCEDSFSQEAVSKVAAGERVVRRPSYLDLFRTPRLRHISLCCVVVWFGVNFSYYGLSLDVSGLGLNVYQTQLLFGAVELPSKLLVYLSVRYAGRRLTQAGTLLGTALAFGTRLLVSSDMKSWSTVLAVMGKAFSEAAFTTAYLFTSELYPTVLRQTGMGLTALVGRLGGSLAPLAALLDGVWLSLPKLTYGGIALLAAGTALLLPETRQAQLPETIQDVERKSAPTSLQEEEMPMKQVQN
CYP2B6: Cytochrome P450 2B6 (CYP2B6, Homo sapiens, UniProt P20813)
UniProt P20813, sequence (whole entry, looked up): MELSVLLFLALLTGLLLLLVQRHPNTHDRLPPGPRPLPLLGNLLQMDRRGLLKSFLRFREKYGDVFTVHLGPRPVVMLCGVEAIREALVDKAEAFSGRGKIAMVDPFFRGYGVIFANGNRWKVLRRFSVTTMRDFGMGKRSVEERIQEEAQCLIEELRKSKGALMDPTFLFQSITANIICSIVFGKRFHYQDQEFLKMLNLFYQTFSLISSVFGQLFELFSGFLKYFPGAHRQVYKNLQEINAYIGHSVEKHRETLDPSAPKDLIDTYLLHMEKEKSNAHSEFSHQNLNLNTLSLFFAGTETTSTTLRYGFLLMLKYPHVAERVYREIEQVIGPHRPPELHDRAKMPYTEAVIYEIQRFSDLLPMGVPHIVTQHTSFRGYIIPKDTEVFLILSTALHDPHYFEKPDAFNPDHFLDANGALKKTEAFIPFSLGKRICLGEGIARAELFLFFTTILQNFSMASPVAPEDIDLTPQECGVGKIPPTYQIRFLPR
AHR: Aryl hydrocarbon receptor (AHR, Homo sapiens, UniProt P35869)
UniProt P35869, sequence (whole entry, looked up): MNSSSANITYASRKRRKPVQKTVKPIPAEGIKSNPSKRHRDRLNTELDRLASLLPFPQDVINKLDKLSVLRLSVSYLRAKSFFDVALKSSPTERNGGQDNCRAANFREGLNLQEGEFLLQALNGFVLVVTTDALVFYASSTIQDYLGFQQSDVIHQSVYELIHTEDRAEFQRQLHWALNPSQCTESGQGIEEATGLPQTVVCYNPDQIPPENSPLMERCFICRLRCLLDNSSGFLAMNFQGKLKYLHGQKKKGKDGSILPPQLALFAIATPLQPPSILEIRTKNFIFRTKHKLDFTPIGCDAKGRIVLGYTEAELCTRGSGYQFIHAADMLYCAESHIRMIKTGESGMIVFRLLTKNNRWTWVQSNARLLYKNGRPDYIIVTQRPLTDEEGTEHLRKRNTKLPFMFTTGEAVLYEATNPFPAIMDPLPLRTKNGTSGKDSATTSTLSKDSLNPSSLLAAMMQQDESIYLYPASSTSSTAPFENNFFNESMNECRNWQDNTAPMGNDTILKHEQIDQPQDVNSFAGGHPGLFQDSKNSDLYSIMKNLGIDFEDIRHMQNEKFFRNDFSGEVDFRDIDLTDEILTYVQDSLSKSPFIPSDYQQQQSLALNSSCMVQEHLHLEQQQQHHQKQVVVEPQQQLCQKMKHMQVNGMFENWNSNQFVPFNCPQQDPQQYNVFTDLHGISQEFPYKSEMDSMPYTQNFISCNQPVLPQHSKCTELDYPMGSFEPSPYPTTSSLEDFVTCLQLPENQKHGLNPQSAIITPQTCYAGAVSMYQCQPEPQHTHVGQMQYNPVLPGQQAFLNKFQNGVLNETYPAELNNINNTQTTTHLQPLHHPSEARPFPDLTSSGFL
CYP3A4: Cytochrome P450 3A4 (CYP3A4, Homo sapiens, UniProt P08684)
UniProt P08684, sequence (whole entry, looked up): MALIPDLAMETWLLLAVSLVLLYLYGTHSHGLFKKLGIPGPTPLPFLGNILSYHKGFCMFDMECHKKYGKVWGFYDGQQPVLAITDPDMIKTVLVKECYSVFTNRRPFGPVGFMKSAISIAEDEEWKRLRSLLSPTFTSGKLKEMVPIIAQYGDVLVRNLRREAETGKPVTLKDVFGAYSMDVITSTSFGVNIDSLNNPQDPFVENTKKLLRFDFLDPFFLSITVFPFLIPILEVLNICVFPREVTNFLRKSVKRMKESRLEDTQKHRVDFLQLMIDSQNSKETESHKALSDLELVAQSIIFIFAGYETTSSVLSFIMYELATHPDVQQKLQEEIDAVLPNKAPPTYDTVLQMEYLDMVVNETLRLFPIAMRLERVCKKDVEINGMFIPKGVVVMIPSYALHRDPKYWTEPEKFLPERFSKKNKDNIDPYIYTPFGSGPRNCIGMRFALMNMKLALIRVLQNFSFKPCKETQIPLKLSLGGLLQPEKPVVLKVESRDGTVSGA
UniProt Q4U2R8, sequence (whole entry, looked up): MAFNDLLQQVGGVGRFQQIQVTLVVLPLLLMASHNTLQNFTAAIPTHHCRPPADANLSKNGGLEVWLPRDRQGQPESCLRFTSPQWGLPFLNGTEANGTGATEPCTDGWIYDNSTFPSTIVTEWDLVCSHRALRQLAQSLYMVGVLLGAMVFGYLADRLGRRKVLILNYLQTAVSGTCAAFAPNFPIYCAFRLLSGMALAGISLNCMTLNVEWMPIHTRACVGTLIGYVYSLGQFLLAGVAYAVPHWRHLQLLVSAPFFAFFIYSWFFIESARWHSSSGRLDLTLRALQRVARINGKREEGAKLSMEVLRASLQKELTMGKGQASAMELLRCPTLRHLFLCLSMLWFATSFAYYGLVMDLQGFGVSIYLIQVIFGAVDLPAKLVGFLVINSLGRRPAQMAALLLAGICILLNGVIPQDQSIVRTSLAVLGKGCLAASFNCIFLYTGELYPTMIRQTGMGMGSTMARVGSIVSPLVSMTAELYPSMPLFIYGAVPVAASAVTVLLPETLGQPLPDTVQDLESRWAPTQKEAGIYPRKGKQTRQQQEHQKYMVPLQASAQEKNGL
UniProt O70423, sequence (whole entry, looked up): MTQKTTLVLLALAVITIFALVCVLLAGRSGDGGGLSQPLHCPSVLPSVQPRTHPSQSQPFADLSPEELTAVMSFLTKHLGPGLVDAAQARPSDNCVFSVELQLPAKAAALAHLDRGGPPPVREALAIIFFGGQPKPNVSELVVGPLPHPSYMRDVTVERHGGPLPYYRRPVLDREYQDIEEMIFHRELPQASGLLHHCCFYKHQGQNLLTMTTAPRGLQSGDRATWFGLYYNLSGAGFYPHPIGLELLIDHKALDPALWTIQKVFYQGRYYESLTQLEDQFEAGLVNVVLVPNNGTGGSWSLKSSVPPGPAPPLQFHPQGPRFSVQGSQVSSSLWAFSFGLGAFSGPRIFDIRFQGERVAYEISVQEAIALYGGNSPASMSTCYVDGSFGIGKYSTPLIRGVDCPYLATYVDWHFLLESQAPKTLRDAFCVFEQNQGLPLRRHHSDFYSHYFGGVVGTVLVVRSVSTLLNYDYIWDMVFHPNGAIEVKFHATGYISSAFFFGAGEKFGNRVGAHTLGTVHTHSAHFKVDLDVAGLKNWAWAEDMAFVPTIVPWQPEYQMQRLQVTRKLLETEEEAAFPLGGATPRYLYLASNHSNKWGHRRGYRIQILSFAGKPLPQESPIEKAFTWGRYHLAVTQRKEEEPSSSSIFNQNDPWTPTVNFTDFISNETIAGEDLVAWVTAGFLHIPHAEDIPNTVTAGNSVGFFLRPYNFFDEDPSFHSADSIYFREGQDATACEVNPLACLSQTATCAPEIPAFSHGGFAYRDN

SMILES | target | test | test system | setting | scale | measurement | value
C=CC(=O)N1C[C@H](Nc2ncnc3[nH]ccc23)CC[C@@H]1C | CYP3A | substrate | human, plasma | oral, 30 mg single dose, cpd alone | – | AUC(0-t) | 264 ng·h/mL
CC(C)=CCc1c(O)cc(O)c2c1O[C@H](c1ccc(O)cc1)CC2=O | human CYP2D6 | – | – | 1 µM, pH 7.4 | – | inhibition | < 10%
C[S+](C)[O-] | human HLA-A*24:02 peptide complex | nanoDSF | – | 20% (v/v), pH 7.6, ramp 1.0 °C/min | – | melting temperature | 48.9 ± 0.1 °C
COc1cc(CC(=O)O)ccc1O | SLC22A7 | substrate | HEK293 control cells | – | – | uptake rate | 109 ± 4.4 pmol/min/mg protein
O=C([O-])CN(CCN(CC(=O)[O-])CC(=O)[O-])CC(=O)[O-].[Fe+3] | Fe(III) | EDTA competition | – | pH 7.4 | – | log conditional stability constant | 22.2
C=CC(=O)N(C)CCOc1c(N)ncnc1-c1cc(F)cc(NC(=O)c2ccc(C3CC3)cc2F)c1C | CYP2B6 | recombinant enzyme | potassium phosphate buffer | pH 7.4 | – | fraction unbound in microsomal incubation | 0.93
O=C(c1cccc(Cl)n1)c1c[nH]c2ccccc12 | AHR | reporter gene, agonist, XRE luciferase | HepG2 | 10 µM | reference: ITE | activity at 10 µM | 158%
Nc1nc2c(ncn2[C@@H]2O[C@@H]3COP(=O)(O)O[C@H]3[C@H]2O)c(=O)[nH]1 | SLC22A7 | – | HEK293 control cells | – | – | uptake velocity | 1.5 ± 0.5 pmol/min/mg protein
CCCCC1=NC2(CCCC2)C(=O)N1Cc1ccc(-c2ccccc2S(=O)(=O)Nc2noc(C)c2C)c(COCC)c1 | CYP3A4 | substrate | human liver microsomes | – | – | intrinsic clearance | 0.497 µL/min/pmol
CC(C)NCC(O)COc1ccc(COCCOC(C)C)cc1 (stereo not drawn) | H+/organic cation antiporter | cell uptake | hCMEC/D3 | – | – | intrinsic clearance | 13 µL/min/mg protein
N#C[C@H](C[C@@H]1CCCNC1=O)NC(=O)[C@H](CC1CC1)NC(=O)c1cc2cccc(Cl)c2[nH]1 | CYP2B6 | NADPH metabolic stability | – | 2 µM, pH 7.4, 37 °C, 100 pmol/mL enzyme | – | half-life | > 2.13 h
Cc1cc(Nc2ncnc3ccc(NC4=NC(C)(C)CO4)cc23)ccc1Oc1ccn2ncnc2c1 | CYP3A4 | – | human, plasma | oral, 300 mg single dose, day 1, compound alone | – | half-life (arithmetic mean) | 7.87 h
Cc1cccc(C)c1NC(=O)C1CCCCN1C (stereo not drawn) | H+/organic cation antiporter | cell uptake | hCMEC/D3 | – | – | intrinsic clearance | 10.9 µL/min/mg protein
CCc1cc(/C(C)=N/OCc2ccc(C3CCCCC3)c(C(F)(F)F)c2)ccc1CN1CC(C(=O)O)C1 | SLC22A6 (Homo sapiens, UniProt Q4U2R8) | transport, inhibitor | HEK293 transfected with SLC22A6 | up to 24.3 µM, 5 min, with: p-aminohippuric acid 1 µM | – | maximal inhibition | -7.7%
CC(C)c1nc(N(C)S(C)(=O)=O)nc(-c2ccc(F)cc2)c1/C=C/[C@@H](O)C[C@@H](O)CC(=O)O | OATP | – | cynomolgus monkey hepatocytes | 37 °C, 10% monkey serum, with: 200 µM rifamycin SV | – | uptake clearance | 1.5 µL/min/10⁶ cells
COC(=O)c1ccccc1C(=O)c1c[nH]c2ccccc12 | AHR | reporter gene, agonist, XRE luciferase | HepG2 | 10 µM | reference: ITE | activity at 10 µM | 30%
CN(C)CCOC(C)(c1ccccc1)c1ccccn1 (stereo not drawn) | H+/organic cation antiporter | cell uptake | hCMEC/D3 | – | – | intrinsic clearance | 20.1 µL/min/mg protein
CC[C@H]1[C@@H](O)[C@@H]2[C@H](CC[C@]3(C)[C@@H]([C@H](C)CCNC(=O)NS(=O)(=O)c4ccc(C(C)(C)C)cc4)CC[C@@H]23)[C@@]2(C)CC[C@@H](O)C[C@@H]12 | CYP3A4 | substrate | human, plasma | 10 mg, alone, study day 1 | – | AUC(0-t) mean | 390 ng·h/mL
CCCOC(C(=O)OC1CCN(C)CC1)(c1ccccc1)c1ccccc1 | H+/organic cation antiporter | cell uptake | hCMEC/D3 | – | – | intrinsic clearance | 217 µL/min/mg protein
NCc1cc2c(cc1F)C(=O)N(C1CCC(=O)NC1=O)C2 (stereo not drawn) | Amine oxidase [copper-containing] 3 (Mus musculus, UniProt O70423) | substrate, LC-MS/MS | recombinant mouse enzyme | 10 µM, 8 h, pH 7.4, with: inhibitor 0.25 µM | – | concentration | 7.5 µM
COc1ccc2c(c1)N(C[C@H](C)CN(C)C)c1ccccc1S2 | H+/organic cation antiporter | cell uptake | hCMEC/D3 | – | – | intrinsic clearance | 205 µL/min/mg protein
C=C(F)C(=O)N1CCN(c2nc(OC[C@@H]3CCCN3C)nc3c2CCN(c2cccc4cccc(Cl)c24)C3)C[C@@H]1CC#N | CYP3A4 | – | healthy volunteers, plasma | 200 mg, geometric mean, with: itraconazole once daily | – | AUC(0-t) | 7400 ng·h/mL
CCOc1ccccc1OCCN[C@H](C)Cc1ccc(OC)c(S(N)(=O)=O)c1 | H+/organic cation antiporter | cell uptake | hCMEC/D3 | – | – | intrinsic clearance | 10.1 µL/min/mg protein
CC(C)=CCc1c(O)cc2c(c1O)C(=O)C[C@@H](c1ccc(O)cc1)O2 | human CYP2D6 | – | – | 10 µM, pH 7.4 | – | inhibition | < 10%

Repeated from above:
SMILES | target | test | test system | setting | scale | measurement | value
COC(=O)c1ccccc1C(=O)c1c[nH]c2ccccc12 | AHR | reporter gene, agonist, XRE luciferase | HepG2 | 10 µM | reference: ITE | activity at 10 µM | 30%
CN(C)CCOC(C)(c1ccccc1)c1ccccn1 (stereo not drawn) | H+/organic cation antiporter | cell uptake | hCMEC/D3 | – | – | intrinsic clearance | 20.1 µL/min/mg protein
CC[C@H]1[C@@H](O)[C@@H]2[C@H](CC[C@]3(C)[C@@H]([C@H](C)CCNC(=O)NS(=O)(=O)c4ccc(C(C)(C)C)cc4)CC[C@@H]23)[C@@]2(C)CC[C@@H](O)C[C@@H]12 | CYP3A4 | substrate | human, plasma | 10 mg, alone, study day 1 | – | AUC(0-t) mean | 390 ng·h/mL
CCCOC(C(=O)OC1CCN(C)CC1)(c1ccccc1)c1ccccc1 | H+/organic cation antiporter | cell uptake | hCMEC/D3 | – | – | intrinsic clearance | 217 µL/min/mg protein
